Results pooled from the literature.
Compare with care: the assays were run in different laboratories. “And” joins repeats or separate records; there may be more than shown. Numbers after ± are the reported error.
TDP1: Tyrosyl-DNA phosphodiesterase 1 (TDP1, Homo sapiens, UniProt Q9NUW8)
UniProt Q9NUW8, sequence (whole entry, looked up): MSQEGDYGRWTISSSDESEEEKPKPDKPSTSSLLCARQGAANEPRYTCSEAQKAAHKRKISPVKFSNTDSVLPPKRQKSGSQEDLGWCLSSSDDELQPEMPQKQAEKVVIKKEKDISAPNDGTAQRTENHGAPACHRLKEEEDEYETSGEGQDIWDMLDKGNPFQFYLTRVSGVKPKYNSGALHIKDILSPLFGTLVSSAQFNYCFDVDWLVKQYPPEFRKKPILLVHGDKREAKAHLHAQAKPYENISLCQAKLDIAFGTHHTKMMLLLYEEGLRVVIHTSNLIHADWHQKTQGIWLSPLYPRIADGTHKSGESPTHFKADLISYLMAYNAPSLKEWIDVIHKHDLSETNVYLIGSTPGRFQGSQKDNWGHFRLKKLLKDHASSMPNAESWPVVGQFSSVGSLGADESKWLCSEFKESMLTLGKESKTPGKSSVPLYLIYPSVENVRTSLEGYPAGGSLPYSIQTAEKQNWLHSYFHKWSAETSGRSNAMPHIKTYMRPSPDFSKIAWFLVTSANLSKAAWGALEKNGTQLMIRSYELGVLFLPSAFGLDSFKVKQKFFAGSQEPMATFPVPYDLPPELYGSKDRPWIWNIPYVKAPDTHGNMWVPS
CASP6: Caspase-6 (CASP6, Homo sapiens, UniProt P55212)
UniProt P55212, sequence (whole entry, looked up): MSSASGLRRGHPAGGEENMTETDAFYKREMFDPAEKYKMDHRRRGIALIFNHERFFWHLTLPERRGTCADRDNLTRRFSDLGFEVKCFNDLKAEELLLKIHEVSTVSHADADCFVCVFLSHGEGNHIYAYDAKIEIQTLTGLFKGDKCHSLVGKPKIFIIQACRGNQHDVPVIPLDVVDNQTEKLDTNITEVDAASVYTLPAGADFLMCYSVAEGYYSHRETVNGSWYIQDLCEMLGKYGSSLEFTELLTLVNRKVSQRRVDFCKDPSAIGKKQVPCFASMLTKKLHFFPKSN
PLIN3: Perilipin-3 (PLIN3, Homo sapiens, UniProt O60664)
UniProt O60664, sequence (whole entry, looked up): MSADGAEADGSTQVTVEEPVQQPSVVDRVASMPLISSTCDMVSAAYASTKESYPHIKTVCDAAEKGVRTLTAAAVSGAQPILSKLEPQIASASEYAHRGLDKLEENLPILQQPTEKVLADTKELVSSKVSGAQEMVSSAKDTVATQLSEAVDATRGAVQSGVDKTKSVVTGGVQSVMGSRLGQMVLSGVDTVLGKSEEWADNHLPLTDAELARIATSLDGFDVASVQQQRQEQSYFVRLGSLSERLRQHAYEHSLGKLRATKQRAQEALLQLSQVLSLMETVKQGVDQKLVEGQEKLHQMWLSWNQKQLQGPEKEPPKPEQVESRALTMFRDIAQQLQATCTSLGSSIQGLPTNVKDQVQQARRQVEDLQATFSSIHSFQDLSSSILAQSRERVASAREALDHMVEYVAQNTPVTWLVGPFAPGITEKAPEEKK
Gria1: Glutamate receptor 1 (Gria1, Rattus norvegicus, UniProt P19490)
UniProt P19490, sequence (whole entry, looked up): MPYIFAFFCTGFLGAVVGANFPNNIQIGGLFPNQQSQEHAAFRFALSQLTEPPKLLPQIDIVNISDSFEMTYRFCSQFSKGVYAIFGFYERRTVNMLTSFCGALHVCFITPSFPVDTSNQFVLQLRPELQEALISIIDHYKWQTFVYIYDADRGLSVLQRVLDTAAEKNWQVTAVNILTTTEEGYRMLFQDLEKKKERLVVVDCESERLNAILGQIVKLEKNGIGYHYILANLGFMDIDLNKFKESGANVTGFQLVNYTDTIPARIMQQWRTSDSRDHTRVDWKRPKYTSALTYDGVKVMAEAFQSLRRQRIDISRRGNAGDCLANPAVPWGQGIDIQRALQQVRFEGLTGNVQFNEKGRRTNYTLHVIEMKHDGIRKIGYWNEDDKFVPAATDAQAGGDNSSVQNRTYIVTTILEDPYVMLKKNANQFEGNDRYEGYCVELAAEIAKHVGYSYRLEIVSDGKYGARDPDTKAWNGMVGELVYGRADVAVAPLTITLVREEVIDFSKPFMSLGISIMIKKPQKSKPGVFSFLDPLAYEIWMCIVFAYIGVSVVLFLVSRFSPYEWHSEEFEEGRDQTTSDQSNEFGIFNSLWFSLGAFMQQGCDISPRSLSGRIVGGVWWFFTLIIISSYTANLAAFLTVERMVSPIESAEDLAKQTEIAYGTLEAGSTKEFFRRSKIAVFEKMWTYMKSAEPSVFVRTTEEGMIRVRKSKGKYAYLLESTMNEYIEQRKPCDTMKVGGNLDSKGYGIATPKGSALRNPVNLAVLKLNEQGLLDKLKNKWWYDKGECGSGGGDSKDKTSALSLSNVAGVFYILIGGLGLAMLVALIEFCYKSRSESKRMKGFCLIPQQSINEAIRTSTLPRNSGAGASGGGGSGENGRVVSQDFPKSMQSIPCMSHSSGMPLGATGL
TARDBP aggregated: TAR DNA-binding protein 43, aggregated (TARDBP, Homo sapiens, UniProt Q13148)
UniProt Q13148, sequence (whole entry, looked up): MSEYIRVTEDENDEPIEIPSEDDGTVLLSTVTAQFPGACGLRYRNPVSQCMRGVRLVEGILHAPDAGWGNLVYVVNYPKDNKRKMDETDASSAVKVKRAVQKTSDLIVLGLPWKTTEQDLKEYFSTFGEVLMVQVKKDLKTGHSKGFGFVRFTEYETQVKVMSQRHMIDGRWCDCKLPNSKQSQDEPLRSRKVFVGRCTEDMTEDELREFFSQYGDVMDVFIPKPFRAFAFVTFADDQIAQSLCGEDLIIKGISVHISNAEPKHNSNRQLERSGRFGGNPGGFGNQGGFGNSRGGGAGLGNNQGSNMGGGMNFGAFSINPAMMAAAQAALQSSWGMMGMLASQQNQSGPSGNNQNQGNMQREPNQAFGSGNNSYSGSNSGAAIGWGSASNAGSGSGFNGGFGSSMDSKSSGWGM
CHRM5: Muscarinic acetylcholine receptor M5 (CHRM5, Homo sapiens, UniProt P08912)
UniProt P08912, sequence (whole entry, looked up): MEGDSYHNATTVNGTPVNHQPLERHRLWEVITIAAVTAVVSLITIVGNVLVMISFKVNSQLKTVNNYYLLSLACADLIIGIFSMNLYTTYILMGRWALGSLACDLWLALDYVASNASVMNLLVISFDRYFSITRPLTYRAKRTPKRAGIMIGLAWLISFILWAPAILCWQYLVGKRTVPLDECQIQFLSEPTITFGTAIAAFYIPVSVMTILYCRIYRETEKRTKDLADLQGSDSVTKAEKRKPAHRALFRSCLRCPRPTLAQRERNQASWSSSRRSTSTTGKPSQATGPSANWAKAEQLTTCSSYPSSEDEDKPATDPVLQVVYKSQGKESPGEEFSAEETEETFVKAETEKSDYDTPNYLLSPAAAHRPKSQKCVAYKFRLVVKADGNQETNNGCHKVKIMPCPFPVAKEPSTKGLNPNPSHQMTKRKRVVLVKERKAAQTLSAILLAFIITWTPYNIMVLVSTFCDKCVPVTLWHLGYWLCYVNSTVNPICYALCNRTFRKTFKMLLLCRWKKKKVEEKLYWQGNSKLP
T1: dsDNA, duplex; chain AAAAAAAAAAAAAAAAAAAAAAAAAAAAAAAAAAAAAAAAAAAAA; chain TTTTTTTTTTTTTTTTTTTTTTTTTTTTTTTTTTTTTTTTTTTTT
UniProt Q92633, sequence (whole entry, looked up): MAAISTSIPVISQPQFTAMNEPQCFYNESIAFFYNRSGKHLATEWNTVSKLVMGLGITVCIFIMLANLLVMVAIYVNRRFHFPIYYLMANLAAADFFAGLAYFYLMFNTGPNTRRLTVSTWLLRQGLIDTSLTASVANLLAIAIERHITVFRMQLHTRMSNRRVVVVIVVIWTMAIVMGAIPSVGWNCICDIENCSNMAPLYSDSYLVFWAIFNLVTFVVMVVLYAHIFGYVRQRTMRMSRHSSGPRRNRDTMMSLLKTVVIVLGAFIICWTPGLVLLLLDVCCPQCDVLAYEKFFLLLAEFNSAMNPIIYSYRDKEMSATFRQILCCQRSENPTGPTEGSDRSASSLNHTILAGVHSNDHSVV
UniProt P46089, sequence (whole entry, looked up): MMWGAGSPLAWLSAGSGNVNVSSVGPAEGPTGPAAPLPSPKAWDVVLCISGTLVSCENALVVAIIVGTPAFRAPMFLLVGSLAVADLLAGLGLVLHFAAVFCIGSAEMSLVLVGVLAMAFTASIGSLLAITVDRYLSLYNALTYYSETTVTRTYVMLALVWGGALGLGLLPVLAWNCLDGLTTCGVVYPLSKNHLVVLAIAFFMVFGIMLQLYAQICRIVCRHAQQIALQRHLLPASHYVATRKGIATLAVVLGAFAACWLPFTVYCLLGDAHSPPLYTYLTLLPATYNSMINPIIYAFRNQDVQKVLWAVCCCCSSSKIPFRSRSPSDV
UniProt P0A7A9, sequence (whole entry, looked up): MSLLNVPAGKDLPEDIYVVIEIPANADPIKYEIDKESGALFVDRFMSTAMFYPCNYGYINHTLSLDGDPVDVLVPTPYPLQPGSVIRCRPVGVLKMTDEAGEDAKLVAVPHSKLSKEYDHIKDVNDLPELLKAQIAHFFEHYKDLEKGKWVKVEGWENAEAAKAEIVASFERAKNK
UniProt O75874, sequence (whole entry, unmodified, looked up): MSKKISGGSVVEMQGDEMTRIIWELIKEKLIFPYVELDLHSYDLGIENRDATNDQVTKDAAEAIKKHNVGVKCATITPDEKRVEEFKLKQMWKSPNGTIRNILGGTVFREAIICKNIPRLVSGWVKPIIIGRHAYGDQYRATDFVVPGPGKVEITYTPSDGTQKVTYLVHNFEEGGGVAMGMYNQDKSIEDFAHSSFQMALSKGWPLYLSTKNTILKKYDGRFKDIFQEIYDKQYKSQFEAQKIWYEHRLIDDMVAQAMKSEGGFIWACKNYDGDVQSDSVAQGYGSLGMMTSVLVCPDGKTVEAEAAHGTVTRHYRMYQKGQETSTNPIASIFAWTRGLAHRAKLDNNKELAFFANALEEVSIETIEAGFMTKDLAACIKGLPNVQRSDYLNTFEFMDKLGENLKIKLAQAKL
UniProt P09391, sequence (whole entry, looked up): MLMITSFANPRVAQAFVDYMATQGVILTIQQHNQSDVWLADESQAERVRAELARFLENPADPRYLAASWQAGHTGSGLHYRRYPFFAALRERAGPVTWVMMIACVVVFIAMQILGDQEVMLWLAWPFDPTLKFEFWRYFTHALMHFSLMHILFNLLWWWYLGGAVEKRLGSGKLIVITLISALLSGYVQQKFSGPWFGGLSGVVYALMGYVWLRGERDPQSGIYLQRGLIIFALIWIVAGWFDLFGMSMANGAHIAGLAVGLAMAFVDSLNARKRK
UniProt P00698, sequence (whole entry, looked up): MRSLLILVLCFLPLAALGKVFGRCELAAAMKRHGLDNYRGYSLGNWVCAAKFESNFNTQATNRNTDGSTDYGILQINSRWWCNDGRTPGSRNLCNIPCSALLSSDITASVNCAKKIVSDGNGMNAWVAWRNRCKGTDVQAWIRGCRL

With N#Cc1ccc(-c2ccc(C=NOCc3ccc(-c4nc5cc(-c6ccccc6)ccn5c4Nc4ccc(C(=O)O)cc4)cc3)cc2)nc1 the inhibition was 102% (TDP1; enzyme activity, inhibitor; 100 µM).
CC(=O)N[C@@H](CC(=O)O)C(=O)N[C@@H](CO)C(=O)N[C@H](C(=O)N[C@@H](CC(=O)O)C(=O)COC(=O)c1c(C)cccc1C)C(C)C gave a kinact/KI of 85000 M⁻¹ s⁻¹ (CASP6; enzyme activity, inhibitor).
CCCc1n(Cc2ccc(Br)cc2)c2c([n+]1Cc1ccc(Br)cc1)CCCC2 — result for binding: “binds” (T1, dsDNA, duplex; gel retardation; 60-1500 µM, 2 h, K+ 100 mM).
For CC(=O)N(c1ccccc1)c1nc(C=NOCc2ccc3nc(-c4ccccc4)c(Nc4ccc(C(=O)O)cc4)n3c2)cs1 (mixture of isomers), the inhibition was -17.8% (TDP1; enzyme activity, inhibitor; 100 µM, unpurified compound).
For CCCCCCCCCCCCC/C=C/C=O, “isoTOP-ABPP competition ratio” read 1 (PLIN3; competitive isoTOP-ABPP; proteome, soluble, MDA-MB-231; 100 µM, 60 min, added: iodoacetamide probe; reference: DMSO over compound-treated, higher = stronger cysteine blockade).
With Cc1nc(C2CCN(C(=O)OC(C)(C)C)CC2)sc1C=NOCc1ccc(-c2nc3cc(-c4ccccc4)ccn3c2Nc2ccc(C(=O)O)cc2)cc1 the inhibition was 26.3% (TDP1; enzyme activity, inhibitor; 100 µM, unpurified compound).
For COC(=O)Cc1cc2c(cc1C(=O)c1ccc(Cl)cc1Cl)OCO2, the current amplitude was 388 ± 27 pA (Gria1; glutamate-evoked current, whole-cell patch clamp; HEK-293T; concentration not given, pH 7.4, holding potential -60 mV, added: 10 mM glutamate).
CCN(CC)C(CO)c1cccc2c(C)c(C)oc12 (stereo not shown) gave a fold change of 0.858 and 1.03 and 0.823 and 0.794 and 0.792 and 0.809 (Lysophosphatidic acid receptor 1 (LPAR1, Homo sapiens, UniProt Q92633); G-protein dissociation, agonist, NanoBiT; HEK-293T; 1 nM, wild-type receptor; reference: baseline luminescence).
O=C(Cc1ccc(OCc2ccccc2)cc1)NC1(C(=O)O)CCN(C(=O)c2ccc(-c3cccc(Cl)c3)cc2)CC1: “activity vs control” 97% (Mitogen-activated protein kinase kinase kinase 21 (MAP3K21, Homo sapiens, UniProt Q5TCX8); enzyme activity, inhibitor; 10 µM).
c1ccc(C2=Nn3c(nnc3C3CCCCC3)SC2)cc1 gave a Hill slope of 3.22 (Uncharacterized protein (Trypanosoma brucei brucei, UniProt Q386Q8); inhibitor, coupled colorimetric; Trypanosoma brucei).
Under “isoTOP-ABPP competition ratio”, CCCCCC(O)/C=C/C=O (stereo not shown) is recorded as 1.4 (NIT1 (Homo sapiens, UniProt Q86X76); competitive isoTOP-ABPP; proteome, soluble, MDA-MB-231; 100 µM, 60 min, added: iodoacetamide probe; reference: DMSO over compound-treated, higher = stronger cysteine blockade).
With CC(=O)N[C@@H](CCC(N)=O)C(=O)N[C@@H](CC(C)C)C(=O)N[C@@H](CCCC(=O)O)C(=O)N1CCC[C@H]1C(=O)N[C@@H](CC(=O)O)C(=O)COC(=O)c1c(C)cccc1C the kinact/KI was 24600 M⁻¹ s⁻¹ (CASP6; enzyme activity, inhibitor).
With Fc1ccc(Nc2nc(NC3CCCCC3)c3ccccc3n2)cc1 the bias factor was greater than 200 fold (Beta-2 adrenergic receptor (ADRB2, Homo sapiens, UniProt P07550); β-arrestin2 recruitment, PathHunter and GloSensor; reference: GloSensor IC50 over PathHunter IC50).
O=C(O)Cc1cc2c(cc1C(=O)c1cccc(Br)c1)OCO2: “current amplitude ratio” 5.13 ± 0.2 (Gria1; glutamate-evoked current, whole-cell patch clamp; HEK-293T; concentration not given; reference: glutamate alone).
NC1=NCCc2ccccc21 gave a ΔTm of 7.7 °C (Nicotinamide N-methyltransferase, SAH-bound (NNMT, Homo sapiens, UniProt P40261); differential scanning fluorimetry; 1 mM, added: 100 µM SAH).
COc1cc(C=NOCc2ccc3nc(-c4ccccc4)c(Nc4ccc(C(=O)O)cc4)n3c2)ccc1F (mixture of isomers) has an inhibition of -13.6% (TDP1; enzyme activity, inhibitor; 100 µM, unpurified compound).
With O=C1c2sc(-c3ccc(N4CCC(CO)CC4)nc3F)nc2CCN1c1cccnc1 the specific binding was 13.2 nM and 10.6 nM (TARDBP aggregated; radioligand binding; human, FTLD-TDP type B extract; added: radioligand 142.86 nM).
For Cc1ccc(S(=O)(=O)N2CC(NC(=O)c3ccccc3F)C2=O)cc1 (stereo not shown), IC50 read “inactive” (Rhomboid protease GlpG (glpG, Escherichia coli, UniProt P09391); enzyme activity, inhibitor, gel-based chimeric protein substrate).
For CC(C)(C)S(=O)(=O)c1ccccc1C=NOCc1ccc2nc(-c3ccccc3)c(Nc3ccc(C(=O)O)cc3)n2c1 (mixture of isomers), the inhibition was 5.5% (TDP1; enzyme activity, inhibitor; 100 µM, unpurified compound).
The Emax of CCCCCCOc1ccc(C(=O)OCC[N+]2(C)CC=CCC2)cc1 (stereo not shown) is reported as 1.3 ± 0.1 fold (CHRM5; membranes; 100 µM, 15 h, added: carbachol; reference: control).
With CC(C)=CC1OC(C)(C)C2C=C3C(=O)C(Cl)=CC(O)C3C3C(O)C4OC4C(=O)C132 (stereo not shown) the remaining binding was 83% (Tyrosine-protein kinase ABL1, phosphorylated (ABL1, Homo sapiens, UniProt P00519, H396P); cell-free assay, competition with immobilised ligand; 10 µM).
N[C@@H](CO)C(=O)O has a particle diameter of 5.2 nm (Lysozyme C (LYZ, Gallus gallus, UniProt P00698); sedimentation equilibrium AUC).
For O=C(CCCCCCS)Nc1ccccc1, the binding stoichiometry was 0.8 (Histone deacetylase 8 (HDAC8, Homo sapiens, UniProt Q9BY41); ITC; phosphate buffer; concentration not given, pH 7.5).
CC(=O)N1c2ccc(-c3ccc(CNC(=O)c4cn5cc(-c6cnc(N)nc6)nc(N6CCOCC6)c5n4)cc3)cc2CC[C@@H]1C has a remaining binding of 87% (Bromodomain-containing protein 1, bromodomain (BRD1, Homo sapiens, UniProt O95696); binding, competition with immobilised ligand; 10 µM).
The inhibition of O=C(O)c1ccc(Nc2c(-c3ccc(CON=Cc4ccc(OCc5ccccc5)cc4)cc3)nc3cc(-c4ccccc4)ccn23)cc1 (mixture of isomers) is reported as 60.7% (TDP1; enzyme activity, inhibitor; 100 µM, unpurified compound).
CC(=O)N[C@@H](CC(=O)O)C(=O)N[C@@H](CCC(=O)O)C(=O)N[C@H](C(=O)N[C@@H](CC(=O)O)C(=O)COC(=O)c1c(C)cccc1C)C(C)C has a kinact/KI of 330000 M⁻¹ s⁻¹ (CASP6; enzyme activity, inhibitor).
With C[C@@H](Nc1nc(N[C@H](C)C(F)(F)F)nc(-c2cccc(Cl)n2)n1)C(F)(F)F the maximal inhibition was 67.3 ± 1.9% (Isocitrate dehydrogenase [NADP] cytoplasmic, with wild-type IDH1 (IDH1, Homo sapiens, UniProt O75874, R132H); enzyme activity; 16 h preincubation, wild type, forward reaction).
O=C1c2sc(-c3ccc(N4CCC(F)C4)nc3F)nc2CCN1c1cccnc1 (stereo not shown) has a specific binding of 6.47 nM (TARDBP aggregated; saturation autoradiography; human, FTLD-TDP type A brain sections; 0.39 nM).
Under “isoTOP-ABPP competition ratio”, CCCCCC=CC=C1C(=O)C=CC1CC=CCCCC(=O)O (stereo not shown) is recorded as 5.6 (PLIN3; competitive isoTOP-ABPP; Ramos soluble proteome; 100 µM, 60 min, added: iodoacetamide probe; reference: DMSO over compound-treated, higher = stronger cysteine blockade).
CN(Cc1cc(C2CC2)on1)C(=O)c1cccc(-c2ccc3c(c2)CCO3)c1 gave a reaction rate of 0.0205 a.u. (ACS1 (Saccharomyces cerevisiae, UniProt Q01574); enzyme activity, inhibitor, coupled pyrophosphate; 25 µM; higher is more activity).
For C#CCOC(=O)[C@]1(C)C=C(C(=O)OC(C)(C)C)C(=O)CC1, the fraction bound was 0.13 (Mitogen-activated protein kinase 8 (MAPK8, Homo sapiens, UniProt P45983); fluorescence polarization; 100 µM, added: D-peptide tracer).
CCCCCCOc1ccc(C(=O)OCCN2CC=CCC2)cc1 has an Emax of 1.45 ± 0.09 fold (CHRM5; membranes; 10 µM, 15 h, added: carbachol; reference: control).
For Cc1ccc2c(c1C)NC(=O)C2(O)CC(=O)c1ccc2c(c1)OCO2 (stereo not shown), the Hill slope was -0.95 (Inorganic pyrophosphatase (ppa, Escherichia coli, UniProt P0A7A9); enzyme activity; counter-screen).
For Cc1cnc2nc1Nc1cccc(c1)COC/C=C/COCc1cc(ccc1OCCN1CCOCC1)N2, the remaining signal was 73% (Mitogen-activated protein kinase kinase kinase 12 (MAP3K12, Homo sapiens, UniProt Q12852); cell-free assay; 0.1 µM).
With O=C(O)c1ccc(Nc2c(-c3ccccc3)nc3ccc(CON=Cc4ccc(-c5cccs5)nc4)cn23)cc1 the inhibition was -9.4% (TDP1; enzyme activity, inhibitor; 100 µM, unpurified compound).
CC(=O)N[C@H](C(=O)N[C@@H](CCO)C(=O)N[C@H](C(=O)N[C@@H](CC(=O)O)C(=O)COC(=O)c1c(C)cccc1C)C(C)C)C(C)C has a kinact/KI of 19700 M⁻¹ s⁻¹ (CASP6; enzyme activity, inhibitor).
With CC(C)[C@@H]1NC(=O)[C@H](Cc2ccccc2)NC(=O)CSC[C@@H](C(N)=O)NC(=O)[C@H](CCC(=O)O)NC(=O)[C@H](CO)NC(=O)[C@H](Cc2c[nH]c3cccc(Cl)c23)NC(=O)[C@H](C2CCCCC2)NC(=O)[C@H](C(C)C)NC(=O)[C@H](Cc2ccc(O)cc2)NC(=O)[C@H](CC(=O)O)NC(=O)[C@H](Cc2c[nH]c3ccccc23)NC(=O)[C@H](Cc2ccc(N)nc2)NC(=O)[C@H](Cc2c[nH]c3ccc(Cl)cc23)NC(=O)[C@H](CCC(=O)O)NC1=O the remaining activity was 63% (Interleukin-1 receptor-like 2 (IL1RL2, Homo sapiens, UniProt Q9HB29); reporter gene (SEAP), inhibitor, HEK-Blue IL-36R reporter; HEK-Blue IL-36R cells; 0.046 µM, 6 h, added: IL-36β 0.01 ng/mL).
For CC(C)Oc1cc(Cl)ccc1CNc1cc(-c2ccccc2)nc2ncnn12, the cAMP luminescence was 27600 a.u. and 32400 a.u. and 41900 a.u. and 31400 a.u. and 50000 a.u. and 32800 a.u. and 28600 a.u. (G-protein coupled receptor 3 (GPR3, Homo sapiens, UniProt P46089); cAMP reporter; human cells; 10 nM; higher is more cAMP).
COc1ncc2nc(C)n(Cc3ncc(S(N)(=O)=O)cc3F)c2c1-c1ccccc1 gave an activation of -6.55% (Kappa-type opioid receptor (OPRK1, Homo sapiens, UniProt P41145); agonist, cell-based; 10 µM).
For C=CC(=O)N1CCCC(n2c(=O)c3ncccc3n(Cc3ccc(Oc4ccccc4)cc3)c2=O)C1 (stereo not shown), “melting temperature shift” read -2.26 (Crk-like protein (Homo sapiens, UniProt P46109); thermal proteome profiling; unit not given; reference: untreated control).
O=C(O)c1ccc(Nc2c(-c3ccc(CON=Cc4c(N5CCCC5)nc5ccccn45)cc3)nc3cc(-c4ccccc4)ccn23)cc1 gave an inhibition of 85.4% (TDP1; enzyme activity, inhibitor; 100 µM, unpurified compound).
Under “current amplitude after recovery”, COC(=O)Cc1cc2c(cc1C(=O)c1cccc(Br)c1)OCO2 is recorded as 915 ± 28 pA (Gria1; glutamate-evoked current, whole-cell patch clamp; HEK-293T; concentration not given, glutamate alone after washout, added: glutamate).
N=C(N)NCCC[C@@H]1NC(=O)[C@H](Cc2ccccc2)NC(=O)CSC[C@@H](C(=O)N[C@@H](CC(=O)O)C(N)=O)NC(=O)[C@H](CCCNC(=N)N)NC(=O)[C@H](Cc2c[nH]c3ccccc23)NC(=O)[C@H](Cc2ccc(O)cc2)NC(=O)[C@H](Cc2ccc(O)cc2)NC(=O)[C@H](Cc2ccccc2)NC1=O gave a ΔTm of -0.56 °C (Bromodomain-containing protein 4, BD1 (BRD4, Homo sapiens, UniProt O60885); thermal stability, DSF; 100 µM).

Some of these lines once more:
With N#Cc1ccc(-c2ccc(C=NOCc3ccc(-c4nc5cc(-c6ccccc6)ccn5c4Nc4ccc(C(=O)O)cc4)cc3)cc2)nc1 the inhibition was 102% (TDP1; enzyme activity, inhibitor; 100 µM).
CC(=O)N[C@H](C(=O)N[C@@H](CCO)C(=O)N[C@H](C(=O)N[C@@H](CC(=O)O)C(=O)COC(=O)c1c(C)cccc1C)C(C)C)C(C)C has a kinact/KI of 19700 M⁻¹ s⁻¹ (CASP6; enzyme activity, inhibitor).
With Cc1nc(C2CCN(C(=O)OC(C)(C)C)CC2)sc1C=NOCc1ccc(-c2nc3cc(-c4ccccc4)ccn3c2Nc2ccc(C(=O)O)cc2)cc1 the inhibition was 26.3% (TDP1; enzyme activity, inhibitor; 100 µM, unpurified compound).
For CC(C)Oc1cc(Cl)ccc1CNc1cc(-c2ccccc2)nc2ncnn12, the cAMP luminescence was 27600 a.u. and 32400 a.u. and 41900 a.u. and 31400 a.u. and 50000 a.u. and 32800 a.u. and 28600 a.u. (G-protein coupled receptor 3 (GPR3, Homo sapiens, UniProt P46089); cAMP reporter; human cells; 10 nM; higher is more cAMP).
Under “current amplitude after recovery”, COC(=O)Cc1cc2c(cc1C(=O)c1cccc(Br)c1)OCO2 is recorded as 915 ± 28 pA (Gria1; glutamate-evoked current, whole-cell patch clamp; HEK-293T; concentration not given, glutamate alone after washout, added: glutamate).
For O=C(CCCCCCS)Nc1ccccc1, the binding stoichiometry was 0.8 (Histone deacetylase 8 (HDAC8, Homo sapiens, UniProt Q9BY41); ITC; phosphate buffer; concentration not given, pH 7.5).
CCCc1n(Cc2ccc(Br)cc2)c2c([n+]1Cc1ccc(Br)cc1)CCCC2 — result for binding: “binds” (T1, dsDNA, duplex; gel retardation; 60-1500 µM, 2 h, K+ 100 mM).
